Measurements from different studies.

With `CSCOC1C(=O)C2(C)C(OCSC)CC3OCC3(OC(C)=O)C2C(OC(=O)c2ccccc2)C2(O)CC(OC(=O)C(O)C(C=C(C)C)NC(=O)OC(C)(C)C)C(C)=C1C2(C)C` (centres unmarked) the Cmax was 1360 ng/mL (male Sprague-Dawley rat, plasma; intravenous, 4 mg/kg).
The Cmax of `N#Cc1cnc2cc(OCC3CCNCC3)c(F)cc2c1Nc1cc(F)c(OCc2cccc(Cl)n2)cc1Cl` is reported as 8000 ng/mL (male Sprague-Dawley rat, plasma; oral, 300 mg/kg).
For `CC(C)(C)C(=O)Nc1ccc2[nH]c(CN3CCC(N(CCCN4CCOCC4)CC4OC(n5cnc6c(N)ncnc65)C(O)C4O)CC3)nc2c1` (centres unmarked), the Cmax was 5840 ng/mL (male Sprague-Dawley rat, plasma; intravenous, 20 mg/kg).
For `Cn1cc(-c2cc(N3CCCS3(=O)=O)ccc2N[C@H]2CC[C@H](C)CC2)c2cc[nH]c2c1=O`, the Cmax was 29.1 ng/mL (Sprague-Dawley rat, plasma; oral, 3 mg/kg).
The Cmax of `O=C(Nc1ccc(OC(F)(F)F)cc1)N1CCC(Cc2cccc(Oc3ccc(C(F)(F)F)cn3)c2)CC1` is reported as 0.044 µM (male Sprague-Dawley rat, blood; oral, 1 mg/kg).
The Cmax of `C[Si]1(C[C@@H](CN)CC(=O)O)CCCC1` is reported as 97.5 µM (male Sprague-Dawley rat, plasma; oral, 100 mg/kg, single dose).
With `COc1c2c(cc3oc(CO)cc(=O)c13)O[C@H](C(C)(C)O)C2` the Cmax was 200 ng/mL (male Sprague-Dawley rat, plasma; oral, 2 mg/kg).
For `C[Si]1(C)CNC(=O)c2ccccc21`, the Cmax was 847 ng/mL (rat, plasma; oral, 5 mg/kg, single dose).
With `CN1Cc2c(Cl)cc(Cl)cc2C(c2cccc(S(=O)(=O)NCCNC(=O)C(O)C(O)C(=O)NCCNS(=O)(=O)c3cccc(C4CN(C)Cc5c(Cl)cc(Cl)cc54)c3)c2)C1` (centres unmarked) the Cmax was under 4 ng/mL (male Sprague-Dawley rat, plasma; oral, 11 mg/kg).
`COc1cc2ncnc(Oc3ccc(Nc4nccc5[nH]cc(-c6ccc(F)cc6)c(=O)c45)cc3F)c2cc1OC` gave a Cmax of 12700 ng/mL (male Sprague-Dawley rat, plasma; oral, 10 mg/kg).
For `CN1CCN(c2ccc(Nc3ncc(Cl)c(Nc4ccccc4P(C)(C)=O)n3)cc2Br)CC1`, the Cmax was 326 ng/mL (male Sprague-Dawley rat, plasma; oral, 25 mg/kg).
For `N=C(N)NCCC[C@H](NC(=O)[C@@H]1CCCN1C(=O)[C@H](Cc1ccccc1)NC(=O)[C@@H]1CCCN1C(=O)[C@H](Cc1c[nH]cn1)NC(=O)[C@@H](N)Cc1ccccc1)C(=O)O`, the Cmax was 125 ng/mL (male Sprague-Dawley rat, plasma; oral, 50 mg/kg).
The Cmax of `Cc1ccc(OCC(=O)N(Cc2cccs2)c2ccn[nH]2)cc1` is reported as 47.8 ng/mL (female Sprague-Dawley rat, plasma; oral, 100 mg/kg, single dose).
The Cmax of `CN1Cc2c(Cl)cc(Cl)cc2[C@H](c2ccc(S(=O)(=O)NCCOCCOCCNC(=O)COCC(=O)NCCOCCOCCNS(=O)(=O)c3ccc([C@@H]4CN(C)Cc5c(Cl)cc(Cl)cc54)cc3)cc2)C1` is reported as under 2 ng/mL (male Sprague-Dawley rat, plasma; oral, 30 mg/kg).
For `COc1ccc(S(=O)(=O)N2CCc3ccccc3C2)cc1N1CCN(C(=O)c2ccc(F)cc2C(F)(F)F)CC1`, the Cmax was 963 ng/mL (rat, plasma; intravenous, 10 mg/kg, single dose).
With `CN1Cc2c(Cl)cc(Cl)cc2[C@H](c2cccc(S(=O)(=O)NCCOCCOCCOCCNC(=O)NCCCCNC(=O)NCCOCCOCCOCCNS(=O)(=O)c3cccc([C@@H]4CN(C)Cc5c(Cl)cc(Cl)cc54)c3)c2)C1` the Cmax was under 15 ng/mL (male Sprague-Dawley rat, plasma; oral, 30 mg/kg).
The Cmax of `NC(=O)c1cccnc1.O=c1[nH]cc(F)c(=O)[nH]1.O=c1[nH]cc(F)c(=O)[nH]1.O=c1[nH]cc(F)c(=O)[nH]1` is reported as 21.9 µM (rat, plasma; oral, 0.06 mmol/kg).
With `CC1(C)CC[C@]2(C(=O)O[C@@H]3O[C@H](CO[C@@H]4O[C@H](CO)[C@@H](O)[C@H](O)[C@H]4O)[C@@H](O)[C@H](O)[C@H]3O)CC[C@]3(C)C(=CC[C@@H]4[C@@]5(C)CC[C@H](O[C@@H]6OC[C@H](O)[C@H](O)[C@H]6O)[C@@](C)(CO)[C@@H]5CC[C@]43C)[C@@H]2C1` the Cmax was 1110 ng/mL (Sprague-Dawley rat, plasma; oral, 150 mg/kg).
`C[Si](C)(C)C[C@@H](CN)CC(=O)O` has a Cmax of 54 µM (male Sprague-Dawley rat, plasma; oral, 30 mg/kg, single dose).
For `Cc1cc(/C=C/C#N)cc(C)c1Oc1nc(NC2CCN(Cc3ccc(P(C)(C)=O)cc3)CC2)nc2ccsc12`, the Cmax was 333 ng/mL (male Sprague-Dawley rat, plasma; oral, 10 mg/kg).
The Cmax of `CC12CC3CC(C)(C1)CC(NC(=O)Nc1ccc(C(=O)N4CCCC(C(N)=O)C4)cc1)(C3)C2` (centres unmarked) is reported as 30.1 µM (Sprague-Dawley rat, plasma; intravenous, 10 mg/kg).
For `Nc1nc(Cl)nc2c1ncn2Cc1cc(OCC(F)F)cc(OC(F)F)c1`, the Cmax was 1560 ng/mL (Sprague-Dawley rat, plasma; oral, 5 mg/kg).
`CN1Cc2c(Cl)cc(Cl)cc2C(c2cccc(S(=O)(=O)NCCOCCOCCNC(=O)C(O)C(O)C(=O)NCCOCCOCCNS(=O)(=O)c3cccc(C4CN(C)Cc5c(Cl)cc(Cl)cc54)c3)c2)C1` (centres unmarked) gave a Cmax of under 1 ng/mL (male Sprague-Dawley rat, plasma; oral, 9 mg/kg).
With `CC(=O)Oc1c2c(c3ccc4c(c3c1OC(C)=O)C=CC(=O)C4(C)C)OC[C@@H]2C` the Cmax was 4520 ng/mL (female Sprague-Dawley rat, serum; intravenous, 10 mg/kg).
The Cmax of `CC12CC3CC(C)(C1)CC(NC(=O)Nc1ccc(C(=O)N4CCC[C@H](C(N)=O)C4)cc1F)(C3)C2` is reported as 1 µM (Sprague-Dawley rat, plasma; oral, 50 mg/kg).
`CNC(=O)N[C@]1(C)CCC[C@@]2(C)C3CC[C@@]4(C)C[C@]3(CCC21)CC4=O` (single isomer, unassigned) has a Cmax of 71.4 ng/mL (male Sprague-Dawley rat, plasma; oral, 2 mg/kg).

For quick reference, copied from above:
With `CC(=O)Oc1c2c(c3ccc4c(c3c1OC(C)=O)C=CC(=O)C4(C)C)OC[C@@H]2C` the Cmax was 4520 ng/mL (female Sprague-Dawley rat, serum; intravenous, 10 mg/kg).
For `Cn1cc(-c2cc(N3CCCS3(=O)=O)ccc2N[C@H]2CC[C@H](C)CC2)c2cc[nH]c2c1=O`, the Cmax was 29.1 ng/mL (Sprague-Dawley rat, plasma; oral, 3 mg/kg).
